Assay results collected from several papers.
Each line is one published result; not all experiments were run side by side. ± gives the spread as reported.
Cell line: A-375

SMILES	test	setting	IC50
CCCC(CCC)C(=O)[O][Pt]1([OH])[O]C(=O)C(=O)[O]1.NC1CCCCC1N	cytotoxicity	72 h	47.3 ± 2.53 µM
CC(C)c1cccc(C(C)C)c1-n1ccn(-c2c(C(C)C)cccc2C(C)C)c1=[Se].[Cl][Au]	cell growth or viability, MTT	72 h	0.6 µM
CC(=O)[O][Pt]([Cl])([Cl])[O]C(C)=O.N.N	cytotoxicity	72 h	29.7 ± 5.16 µM
O=C1Nc2ccccc2C1n1nc(-c2c(O)c3ccccc3oc2=O)cc1-c1ccc(F)cc1 (stereo not drawn)	cell growth or viability, SRB	72 h	6.25 µM
Cc1c(C)n(-c2c(C(C)C)cccc2C(C)C)c(=[Se])n1-c1c(C(C)C)cccc1C(C)C.[Cl][Au]	cell growth or viability, MTT	72 h	1 µM
CO[C@H]1C(=O)c2ccc(O)cc2O[C@@H]1c1ccc(O)c(O)c1 (relative stereo)	cell growth or viability, MTT	72 h	338 µM
N=C(N)NCCC[C@H](NC(=O)[C@H](CC(=O)O)NC(=O)[C@@H]1CSCCCC(=O)NCC(=O)N[C@@H](Cc2c[nH]cn2)C(=O)N[C@H](Cc2ccccc2)C(=O)N[C@@H](CCCNC(=N)N)C(=O)N[C@H](Cc2c[nH]c3ccccc23)C(=O)N1)C(=O)N[C@@H](Cc1ccccc1)C(=O)NCC(N)=O	binding		0.092 ± 0.065 µM
CC(C)c1cccc(C(C)C)c1-n1c(Cl)c(Cl)n(-c2c(C(C)C)cccc2C(C)C)c1=[Se].[Cl][Au]	cell growth or viability, MTT	72 h	1.3 µM
C=C1C(=O)O[C@H]2CC3=C[C@@H](C/C(C)=C/[C@@H](OC(=O)/C=C/c4ccccc4)[C@H]12)OC3=O	cell growth or viability, MTT	24 h	3.3 µM
N.N.O=C(CCCc1ccccc1)[O][Pt]([Cl])([Cl])[O]C(=O)CCCc1ccccc1	cytotoxicity	72 h	0.16 ± 0.02 µM
CC(C)c1cccc(C(C)C)c1N1CCN(c2c(C(C)C)cccc2C(C)C)C1=[Se].[Cl][Au]	cell growth or viability, MTT	72 h	1.4 µM
CC(=O)[O][Pt]([Cl])([Cl])[O]C(=O)CCCc1ccccc1.N.N	cytotoxicity	72 h	6.25 ± 1.94 µM
COc1cccc(-c2ccc(Nc3ccc(CN(C)C)cc3)c(OC)c2F)c1	HTRF, refers to: phospho-Akt		> 1000 µM
[Cl][Au].[Se]=c1n(C23CC4CC(CC(C4)C2)C3)ccn1C12CC3CC(CC(C3)C1)C2	cell growth or viability, MTT	72 h	0.6 µM
CC(=O)[O][Pt]1([O]C(C)=O)[O]C(=O)C(=O)[O]1.NC1CCCCC1N	cytotoxicity	72 h	19.6 ± 2.84 µM

Repeated from above:
SMILES	test	setting	IC50
N=C(N)NCCC[C@H](NC(=O)[C@H](CC(=O)O)NC(=O)[C@@H]1CSCCCC(=O)NCC(=O)N[C@@H](Cc2c[nH]cn2)C(=O)N[C@H](Cc2ccccc2)C(=O)N[C@@H](CCCNC(=N)N)C(=O)N[C@H](Cc2c[nH]c3ccccc23)C(=O)N1)C(=O)N[C@@H](Cc1ccccc1)C(=O)NCC(N)=O	binding		0.092 ± 0.065 µM
